Assay results collected from several papers.
Parts stem from different laboratories: compare values within a part only. “And” joins repeats or separate records; there may be more than shown.
Chain of UniProt P41743 (whole entry, looked up): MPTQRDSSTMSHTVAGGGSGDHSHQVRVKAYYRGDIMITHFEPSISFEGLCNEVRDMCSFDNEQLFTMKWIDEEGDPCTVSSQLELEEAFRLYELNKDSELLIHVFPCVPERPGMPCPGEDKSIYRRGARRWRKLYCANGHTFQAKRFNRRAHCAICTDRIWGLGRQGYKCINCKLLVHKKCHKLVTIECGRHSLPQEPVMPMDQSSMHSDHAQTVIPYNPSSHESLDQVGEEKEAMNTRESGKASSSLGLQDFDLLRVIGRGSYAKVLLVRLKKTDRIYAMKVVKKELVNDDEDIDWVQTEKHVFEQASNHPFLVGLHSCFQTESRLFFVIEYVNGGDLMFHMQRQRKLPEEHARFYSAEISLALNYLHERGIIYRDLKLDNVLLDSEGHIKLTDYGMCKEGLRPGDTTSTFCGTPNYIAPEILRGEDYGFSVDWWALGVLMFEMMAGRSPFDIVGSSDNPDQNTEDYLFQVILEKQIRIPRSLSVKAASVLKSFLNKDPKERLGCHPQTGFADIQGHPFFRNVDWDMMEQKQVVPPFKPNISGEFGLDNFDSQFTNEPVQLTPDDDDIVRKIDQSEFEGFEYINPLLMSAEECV
Chain of UniProt Q5VT25 (whole entry, looked up): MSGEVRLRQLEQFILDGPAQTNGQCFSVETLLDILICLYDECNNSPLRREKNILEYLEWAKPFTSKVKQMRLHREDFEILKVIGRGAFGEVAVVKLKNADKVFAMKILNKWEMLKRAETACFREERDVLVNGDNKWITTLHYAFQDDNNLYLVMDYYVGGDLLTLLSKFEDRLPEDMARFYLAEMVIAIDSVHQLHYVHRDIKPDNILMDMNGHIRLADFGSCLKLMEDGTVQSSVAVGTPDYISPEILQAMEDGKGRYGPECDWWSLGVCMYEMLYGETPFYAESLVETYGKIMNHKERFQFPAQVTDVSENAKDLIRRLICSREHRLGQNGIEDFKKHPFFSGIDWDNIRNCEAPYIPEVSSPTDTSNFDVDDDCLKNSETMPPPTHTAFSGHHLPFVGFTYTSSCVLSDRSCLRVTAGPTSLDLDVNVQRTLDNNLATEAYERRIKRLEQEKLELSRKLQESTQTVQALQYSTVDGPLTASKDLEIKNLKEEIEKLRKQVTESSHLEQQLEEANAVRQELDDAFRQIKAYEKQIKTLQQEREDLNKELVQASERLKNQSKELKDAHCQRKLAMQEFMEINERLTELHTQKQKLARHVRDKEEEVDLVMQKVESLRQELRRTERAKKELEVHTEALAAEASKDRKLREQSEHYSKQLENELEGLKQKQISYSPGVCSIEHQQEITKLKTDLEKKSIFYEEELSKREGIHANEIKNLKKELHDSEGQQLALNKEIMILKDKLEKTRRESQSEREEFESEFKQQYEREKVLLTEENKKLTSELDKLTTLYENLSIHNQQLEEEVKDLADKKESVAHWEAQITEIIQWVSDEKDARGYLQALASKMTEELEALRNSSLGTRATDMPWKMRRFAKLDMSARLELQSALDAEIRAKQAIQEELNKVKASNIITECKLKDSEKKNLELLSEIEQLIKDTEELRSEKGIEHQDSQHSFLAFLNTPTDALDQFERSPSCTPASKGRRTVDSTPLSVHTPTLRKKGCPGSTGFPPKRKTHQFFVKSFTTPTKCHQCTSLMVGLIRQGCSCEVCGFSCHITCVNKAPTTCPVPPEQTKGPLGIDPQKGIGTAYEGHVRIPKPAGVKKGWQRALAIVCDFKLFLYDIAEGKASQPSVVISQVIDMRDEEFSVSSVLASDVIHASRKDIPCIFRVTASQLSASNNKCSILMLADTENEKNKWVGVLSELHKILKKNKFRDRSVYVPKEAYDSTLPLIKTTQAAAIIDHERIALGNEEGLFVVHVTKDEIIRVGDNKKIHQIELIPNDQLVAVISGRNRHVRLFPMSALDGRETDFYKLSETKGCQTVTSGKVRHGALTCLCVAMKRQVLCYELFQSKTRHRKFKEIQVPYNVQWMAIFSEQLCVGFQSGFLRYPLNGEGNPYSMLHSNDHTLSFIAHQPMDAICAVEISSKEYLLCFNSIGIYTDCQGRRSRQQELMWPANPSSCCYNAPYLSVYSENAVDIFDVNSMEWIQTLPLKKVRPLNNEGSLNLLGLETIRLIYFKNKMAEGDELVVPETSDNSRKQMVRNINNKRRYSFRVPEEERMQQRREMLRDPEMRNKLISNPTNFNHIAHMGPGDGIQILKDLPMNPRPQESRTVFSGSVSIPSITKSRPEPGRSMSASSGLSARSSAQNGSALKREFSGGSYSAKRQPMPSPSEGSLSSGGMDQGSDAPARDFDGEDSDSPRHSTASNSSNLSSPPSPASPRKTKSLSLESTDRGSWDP
Chain of UniProt P0C264 (whole entry, looked up): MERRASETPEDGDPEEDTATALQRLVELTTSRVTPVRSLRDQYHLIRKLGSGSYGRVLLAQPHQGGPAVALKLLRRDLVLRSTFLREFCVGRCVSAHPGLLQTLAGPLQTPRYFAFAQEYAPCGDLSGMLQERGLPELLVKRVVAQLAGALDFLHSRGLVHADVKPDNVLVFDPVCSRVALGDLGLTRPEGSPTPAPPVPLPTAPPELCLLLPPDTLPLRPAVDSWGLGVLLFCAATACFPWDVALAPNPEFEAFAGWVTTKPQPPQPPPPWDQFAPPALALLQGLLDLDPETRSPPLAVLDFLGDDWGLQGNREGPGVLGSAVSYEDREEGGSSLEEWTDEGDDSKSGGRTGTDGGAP

Study 1 — observed: binding; method: competition with immobilised ligand; tested at: 1 µM
Structure (SMILES): COc1cc(-c2nc3ccc(C(=O)NCCCN(C)C)cc3n2C2CCC2)cc(OC)c1OC
FGFR4 (Homo sapiens, UniProt P22455) — remaining binding: 94%.
For PRKCI (Homo sapiens, UniProt P41743): remaining binding read 86%.
For PIP5K1A (Homo sapiens, UniProt Q99755): remaining binding read 98%.
STK33 (Homo sapiens, UniProt Q9BYT3) — remaining binding: 100%.
The remaining binding was 91% (CAMK2B (Homo sapiens, UniProt Q13554)).
For MAP4K4 (Homo sapiens, UniProt O95819): remaining binding read 100%.
For MAK (Homo sapiens, UniProt P20794): remaining binding read 100%.
HASPIN (Homo sapiens, UniProt Q8TF76) — remaining binding: 39%.
Aurora kinase B (AURKB, Homo sapiens, UniProt Q96GD4) — remaining binding: 92%.
For PHKG2 (Homo sapiens, UniProt P15735): remaining binding read 89%.
LATS2 (Homo sapiens, UniProt Q9NRM7) — remaining binding: 50%.
For KIT (Homo sapiens, UniProt P10721, A829P): remaining binding read 84%.
The remaining binding was 76% (CDKL1 (Homo sapiens, UniProt Q00532)).
The remaining binding was 100% (MST1R (Homo sapiens, UniProt Q04912)).
AXL (Homo sapiens, UniProt P30530) — remaining binding: 91%.
It gave 89% for remaining binding (STK32C (Homo sapiens, UniProt Q86UX6)).
It gave 95% for remaining binding (HCK (Homo sapiens, UniProt P08631)).
It gave 95% for remaining binding (ALK (Homo sapiens, UniProt Q9UM73, C1156Y)).
For Aurora kinase C (AURKC, Homo sapiens, UniProt Q9UQB9): remaining binding read 96%.
It gave 95% for remaining binding (CDPK1 (Plasmodium falciparum, UniProt P62344)).
For MATK (Homo sapiens, UniProt P42679): remaining binding read 65%.

Study 2 — observed: thermal unfolding; method: differential scanning fluorimetry; tested at: 5.5 µM; reading: higher = more unfolded
Compound: C[C@@H]1CN(c2ccc(-c3cc(C(=O)NCCOCCOCCOCCOCCOCCOCCNC(=O)/C=C/c4[nH]cc(C(=O)N[C@@H](CC(N)=O)c5ccc(F)c(Cl)c5)c4-c4ccc(Cl)cc4F)ccc3F)cc2NC(=O)c2ccc(F)cc2C(F)(F)F)C[C@H](C)N1C
WDR5: WD repeat-containing protein 5 (WDR5, Homo sapiens, UniProt P61964)
DCAF1: DDB1- and CUL4-associated factor 1 (DCAF1, Homo sapiens, UniProt Q9Y4B6)
Chain of UniProt Q9Y4B6 (whole entry, looked up): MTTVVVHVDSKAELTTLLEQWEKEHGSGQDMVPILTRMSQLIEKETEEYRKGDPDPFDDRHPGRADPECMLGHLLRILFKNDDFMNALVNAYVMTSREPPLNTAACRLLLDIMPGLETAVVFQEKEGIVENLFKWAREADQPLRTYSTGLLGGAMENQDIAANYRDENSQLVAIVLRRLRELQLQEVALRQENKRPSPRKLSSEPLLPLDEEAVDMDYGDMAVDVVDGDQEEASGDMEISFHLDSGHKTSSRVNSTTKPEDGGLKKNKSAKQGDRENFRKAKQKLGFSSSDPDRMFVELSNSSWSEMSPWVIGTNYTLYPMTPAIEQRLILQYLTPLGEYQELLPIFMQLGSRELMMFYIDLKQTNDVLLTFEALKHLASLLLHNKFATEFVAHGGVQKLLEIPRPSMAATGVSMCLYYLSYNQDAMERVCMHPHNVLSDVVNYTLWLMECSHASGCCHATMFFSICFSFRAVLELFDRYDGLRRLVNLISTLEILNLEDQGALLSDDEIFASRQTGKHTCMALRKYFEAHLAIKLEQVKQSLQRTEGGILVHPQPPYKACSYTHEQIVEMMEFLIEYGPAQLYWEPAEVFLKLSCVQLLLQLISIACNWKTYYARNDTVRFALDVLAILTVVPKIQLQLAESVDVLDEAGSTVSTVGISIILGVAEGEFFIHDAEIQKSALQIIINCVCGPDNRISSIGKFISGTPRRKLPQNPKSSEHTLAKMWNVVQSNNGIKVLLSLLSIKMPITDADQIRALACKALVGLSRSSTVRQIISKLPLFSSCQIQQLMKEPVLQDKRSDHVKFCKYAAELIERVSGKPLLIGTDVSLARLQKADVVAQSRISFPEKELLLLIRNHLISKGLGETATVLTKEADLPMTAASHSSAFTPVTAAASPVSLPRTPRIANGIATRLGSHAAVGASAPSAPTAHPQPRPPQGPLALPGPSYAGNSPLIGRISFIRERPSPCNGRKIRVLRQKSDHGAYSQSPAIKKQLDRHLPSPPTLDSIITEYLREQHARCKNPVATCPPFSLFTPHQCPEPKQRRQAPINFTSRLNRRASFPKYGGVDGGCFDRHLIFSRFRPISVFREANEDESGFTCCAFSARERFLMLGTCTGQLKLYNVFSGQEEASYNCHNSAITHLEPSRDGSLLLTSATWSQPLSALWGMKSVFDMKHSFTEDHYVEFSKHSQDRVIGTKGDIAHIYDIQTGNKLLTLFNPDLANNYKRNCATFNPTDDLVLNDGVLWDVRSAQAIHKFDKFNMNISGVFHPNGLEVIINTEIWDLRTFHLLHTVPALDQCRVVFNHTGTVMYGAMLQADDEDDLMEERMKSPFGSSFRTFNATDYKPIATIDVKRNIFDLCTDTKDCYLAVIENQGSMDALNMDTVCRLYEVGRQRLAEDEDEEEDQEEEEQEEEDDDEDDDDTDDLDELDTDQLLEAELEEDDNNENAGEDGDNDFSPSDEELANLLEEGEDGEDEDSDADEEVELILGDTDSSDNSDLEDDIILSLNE
It gave 15700 a.u. for “SYPRO Orange fluorescence” (WDR5; 58.01 °C).
For WDR5; 42.6 °C: “SYPRO Orange fluorescence” read 14500 a.u.
DCAF1; 88.21 °C — “SYPRO Orange fluorescence”: 33800 a.u.
It gave 23200 a.u. for “SYPRO Orange fluorescence” (WDR5; 68.61 °C).
It gave 15500 a.u. for “SYPRO Orange fluorescence” (WDR5; 63.61 °C).
DCAF1; 69.61 °C — “SYPRO Orange fluorescence”: 48700 a.u.
DCAF1; 37.2 °C — “SYPRO Orange fluorescence”: 10800 a.u.

Study 3 — tested at: 1 µM
Compound: CC[C@@]1(c2ccccc2)C2=C(CC(C)(C)CC2=O)Nc2n[nH]cc21
The remaining binding was 100% (PTK2 (Homo sapiens, UniProt Q05397); kinase binding, KINOMEscan; reference: DMSO control).
For PAK2 (Homo sapiens, UniProt Q13177); kinase binding, KINOMEscan; reference: DMSO control: remaining binding read 100%.
The remaining binding was 99% (TNK2 (Homo sapiens, UniProt Q07912); binding, competition with immobilised ligand).
For LTK (Homo sapiens, UniProt P29376); binding, competition with immobilised ligand: remaining binding read 100%.
ERN1 (Homo sapiens, UniProt O75460); binding, competition with immobilised ligand — remaining binding: 100%.
The remaining binding was 86% (CDK17 (Homo sapiens, UniProt Q00537); kinase binding, KINOMEscan; reference: DMSO control).
It gave 96% for remaining binding (COQ8B (Homo sapiens, UniProt Q96D53); kinase binding, KINOMEscan; reference: DMSO control).
SBK3 (Homo sapiens, UniProt P0C264); binding, competition with immobilised ligand — remaining binding: 100%.
For CDC42BPA (Homo sapiens, UniProt Q5VT25); kinase binding, KINOMEscan; reference: DMSO control: remaining binding read 95%.
The remaining binding was 98% (TGFBR1 (Homo sapiens, UniProt P36897); binding, competition with immobilised ligand).
It gave 100% for remaining binding (CSNK1G3 (Homo sapiens, UniProt Q9Y6M4); binding, competition with immobilised ligand).
For STK17B (Homo sapiens, UniProt O94768); kinase binding, KINOMEscan; reference: DMSO control: remaining binding read 99%.
It gave 97% for remaining binding (CSNK2A1 (Homo sapiens, UniProt P68400); kinase binding, KINOMEscan; reference: DMSO control).
For EPHA2 (Homo sapiens, UniProt P29317); binding, competition with immobilised ligand: remaining binding read 100%.

Study 4 — cell line: U-87 MG; tested at: concentration not given; reference: DMSO
SMILES: CCN1/C(=C/C=C2\CCCC(/C=C/C3=[N+](CC)c4ccccc4C3(C)C)=C2NCCCCCCCCN2CCC(Nc3nc4ccccc4n3Cc3ccc(F)cc3)CC2)C(C)(C)c2ccccc21
The “log2 fold change” was -1.82 (measured: PAQR4 mRNA).
The “log2 fold change” was -1.03 (measured: CCDC80 mRNA).
The “log2 fold change” was 1.06 (measured: HOMER1 mRNA).
measured: TMEM268 mRNA — “log2 fold change”: 1.45.
For measured: TMEM171 mRNA: “log2 fold change” read -1.87.
For measured: TUBA1A mRNA: “log2 fold change” read -1.91.
It gave -1.11 for “log2 fold change” (measured: P3H3).
The “log2 fold change” was -0.941 (measured: CENPC mRNA).
For measured: MXD1 mRNA: “log2 fold change” read 2.27.
It gave -2.35 for “log2 fold change” (measured: RIN2 mRNA).
For measured: RBM39 mRNA: “log2 fold change” read 0.913.

Study 5 — observed: membrane potential; method: FLIPR membrane potential; cells: CHO-BC cells; tested at: concentration not given; notes: first screen; reference: uninhibited control
Target: Sodium-dependent neutral amino acid transporter B(0)AT1 (SLC6A19, Homo sapiens, UniProt Q695T7)
Chain of UniProt Q695T7 (whole entry, looked up): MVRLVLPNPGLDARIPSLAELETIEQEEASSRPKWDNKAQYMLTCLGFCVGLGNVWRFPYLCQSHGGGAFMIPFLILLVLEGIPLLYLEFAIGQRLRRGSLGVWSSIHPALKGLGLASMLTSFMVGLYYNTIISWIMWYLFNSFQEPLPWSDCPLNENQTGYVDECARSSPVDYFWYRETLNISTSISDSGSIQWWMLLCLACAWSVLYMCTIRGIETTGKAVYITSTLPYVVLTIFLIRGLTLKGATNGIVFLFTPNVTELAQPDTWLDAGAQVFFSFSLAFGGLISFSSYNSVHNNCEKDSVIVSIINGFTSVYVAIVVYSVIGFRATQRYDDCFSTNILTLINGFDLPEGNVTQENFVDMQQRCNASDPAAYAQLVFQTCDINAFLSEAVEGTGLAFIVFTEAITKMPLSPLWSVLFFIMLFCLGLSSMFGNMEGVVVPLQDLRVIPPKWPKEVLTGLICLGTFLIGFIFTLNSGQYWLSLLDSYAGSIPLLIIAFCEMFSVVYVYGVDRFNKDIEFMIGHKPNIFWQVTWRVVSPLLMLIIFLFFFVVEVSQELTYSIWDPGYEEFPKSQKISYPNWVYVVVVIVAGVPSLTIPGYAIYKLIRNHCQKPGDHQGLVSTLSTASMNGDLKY
For `Cc1cc(OCC(=O)NCC(C)C)cc(C)c1Cl`, “normalised transport activity” read 0.959 and 0.976 and 0.934 and 1.03 and 0.923.
For `CCCCCCNC(=O)COc1cc(C)c(Cl)c(C)c1`, “normalised transport activity” read 1.1 and 1.11 and 1.22 and 1 and 0.983.
For `CCNC(=O)COc1cc(C)c(Cl)c(C)c1`, “normalised transport activity” read 0.56 and 0.518 and 0.465 and 0.5.
`CON(C)C(=O)COc1cc(C)c(Cl)c(C)c1` — result for “normalised transport activity”: 1.01 and 1.03 and 1.12 and 1.1 and 1.08.
Under “normalised transport activity”, `Cc1cc(OCC(=O)NCCO)cc(C)c1Cl` is recorded as 0.941 and 0.942 and 1.22 and 1.13 and 1.03 and 1.02 and 1.11 and 0.875.
`Cc1cc(OCC(=O)NCCc2ccccc2)cc(C)c1Cl` — result for “normalised transport activity”: 1.01 and 0.868 and 0.984 and 0.924.
`CC(C)NC(=O)COc1ccc(I)cc1`: “normalised transport activity” 0.513 and 0.694 and 0.464 and 0.644 and 0.522.

Mixed results
For `CCN1CCN(Cc2ccc(COc3c(-c4c(C)c(F)cc5[nH]ncc45)c(C4CC4)cc4c(N5C[C@@H]6C[C@H]5CN6)nc(OC5CCOCC5)nc34)cc2)C(=O)C1`, the ERK1/2 phosphorylation was 110% and 116% and 114% and 137% (A-375 (KRAS wild type); in-cell ELISA, measured: phospho-ERK1/2; 1 µM, 2 h).
For `Cc1ncsc1-c1ccc(C(CO)NC(=O)C2CC(O)CN2C(=O)C(NC(=O)c2ccc(COc3c(-c4c(C)c(F)cc5[nH]ncc45)c(C4CC4)cc4c(N5CC6CC5CN6)nc(OC5CCOCC5)nc34)cc2)C(C)C)cc1` (stereo not drawn), the phospho-ERK1/2 level was 9.99% and 22.2% and 14.3% and 17.4% and 18% and 23.9% (AsPC-1; in-cell ELISA; 300 nM, individual replicates).
With `Cc1ncsc1-c1ccc(C(CO)NC(=O)C2CC(O)CN2C(=O)C(C(C)C)n2cc(-c3ccc(COc4c(-c5c(C)c(F)cc6[nH]ncc56)c(C5CC5)cc5c(N6CC7CC6CN7)nc(OC6CCOCC6)nc45)cc3)nn2)cc1` (stereo not drawn) the DC50 was 48.3 nM (GTPase KRas (KRAS, Homo sapiens, UniProt P01116, G12D); degrader, In-Cell ELISA; PK-59, VHL siRNA; 1440 min).

Some of these lines once more (study 3):
The remaining binding was 100% (PTK2 (Homo sapiens, UniProt Q05397); kinase binding, KINOMEscan; reference: DMSO control).
For CDC42BPA (Homo sapiens, UniProt Q5VT25); kinase binding, KINOMEscan; reference: DMSO control: remaining binding read 95%.
It gave 97% for remaining binding (CSNK2A1 (Homo sapiens, UniProt P68400); kinase binding, KINOMEscan; reference: DMSO control).
